Assay results of several laboratories.
Lines come from different studies, so protocols differ. ± marks the error that the study gave.
Mapk1: Mitogen-activated protein kinase 1 (Mapk1, Rattus norvegicus, UniProt P63086)
UniProt P63086, sequence (whole entry, looked up): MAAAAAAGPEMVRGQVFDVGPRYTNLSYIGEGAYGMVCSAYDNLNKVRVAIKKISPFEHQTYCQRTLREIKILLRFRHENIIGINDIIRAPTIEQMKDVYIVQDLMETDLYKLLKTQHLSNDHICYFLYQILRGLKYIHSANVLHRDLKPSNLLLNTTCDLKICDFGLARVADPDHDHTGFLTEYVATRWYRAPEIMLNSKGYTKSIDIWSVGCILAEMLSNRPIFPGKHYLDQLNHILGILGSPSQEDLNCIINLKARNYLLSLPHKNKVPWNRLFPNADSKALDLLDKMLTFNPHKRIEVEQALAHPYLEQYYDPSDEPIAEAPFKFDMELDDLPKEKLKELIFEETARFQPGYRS
UniProt P31645, sequence (whole entry, looked up): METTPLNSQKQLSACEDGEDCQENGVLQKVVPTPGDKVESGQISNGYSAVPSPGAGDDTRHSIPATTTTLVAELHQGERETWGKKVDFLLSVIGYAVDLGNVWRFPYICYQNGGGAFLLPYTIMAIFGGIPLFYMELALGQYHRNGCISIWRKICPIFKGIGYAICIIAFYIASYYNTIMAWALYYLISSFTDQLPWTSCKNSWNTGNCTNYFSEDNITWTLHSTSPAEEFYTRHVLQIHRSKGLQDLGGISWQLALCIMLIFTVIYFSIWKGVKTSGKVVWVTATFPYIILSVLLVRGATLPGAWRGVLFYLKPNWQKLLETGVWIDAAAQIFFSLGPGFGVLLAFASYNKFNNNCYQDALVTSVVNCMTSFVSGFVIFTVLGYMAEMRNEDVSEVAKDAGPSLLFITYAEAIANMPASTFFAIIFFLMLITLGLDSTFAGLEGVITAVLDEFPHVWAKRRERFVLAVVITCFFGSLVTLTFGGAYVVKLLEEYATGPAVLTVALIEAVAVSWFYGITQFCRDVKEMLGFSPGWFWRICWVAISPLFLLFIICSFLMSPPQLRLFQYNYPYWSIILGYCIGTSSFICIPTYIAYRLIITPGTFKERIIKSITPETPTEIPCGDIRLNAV
UniProt P23977, sequence (whole entry, looked up): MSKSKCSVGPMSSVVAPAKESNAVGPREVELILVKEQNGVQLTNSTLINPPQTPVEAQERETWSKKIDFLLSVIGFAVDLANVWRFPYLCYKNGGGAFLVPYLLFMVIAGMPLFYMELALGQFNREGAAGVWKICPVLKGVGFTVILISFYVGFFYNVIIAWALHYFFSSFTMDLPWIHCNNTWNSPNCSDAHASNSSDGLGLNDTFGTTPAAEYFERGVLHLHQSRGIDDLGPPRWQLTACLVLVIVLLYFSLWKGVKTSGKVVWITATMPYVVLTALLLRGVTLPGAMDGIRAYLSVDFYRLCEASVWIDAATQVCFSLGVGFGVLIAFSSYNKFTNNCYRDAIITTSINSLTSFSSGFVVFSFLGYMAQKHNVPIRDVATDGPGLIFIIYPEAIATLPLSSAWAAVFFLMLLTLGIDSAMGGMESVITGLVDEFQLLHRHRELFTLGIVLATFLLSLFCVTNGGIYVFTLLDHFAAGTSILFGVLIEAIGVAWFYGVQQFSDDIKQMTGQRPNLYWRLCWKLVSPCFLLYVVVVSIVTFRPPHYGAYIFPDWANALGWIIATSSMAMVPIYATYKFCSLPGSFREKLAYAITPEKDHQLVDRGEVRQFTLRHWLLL
UniProt P43235, sequence (whole entry, looked up): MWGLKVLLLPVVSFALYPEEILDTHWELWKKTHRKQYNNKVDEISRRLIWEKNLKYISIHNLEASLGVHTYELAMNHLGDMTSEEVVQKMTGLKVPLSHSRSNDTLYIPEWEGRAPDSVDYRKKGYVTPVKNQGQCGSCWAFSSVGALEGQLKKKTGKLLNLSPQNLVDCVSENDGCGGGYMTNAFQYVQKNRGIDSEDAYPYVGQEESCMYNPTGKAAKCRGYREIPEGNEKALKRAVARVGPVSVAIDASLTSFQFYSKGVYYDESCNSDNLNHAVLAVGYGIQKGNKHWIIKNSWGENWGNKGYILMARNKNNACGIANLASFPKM
UniProt P07384, sequence (whole entry, looked up): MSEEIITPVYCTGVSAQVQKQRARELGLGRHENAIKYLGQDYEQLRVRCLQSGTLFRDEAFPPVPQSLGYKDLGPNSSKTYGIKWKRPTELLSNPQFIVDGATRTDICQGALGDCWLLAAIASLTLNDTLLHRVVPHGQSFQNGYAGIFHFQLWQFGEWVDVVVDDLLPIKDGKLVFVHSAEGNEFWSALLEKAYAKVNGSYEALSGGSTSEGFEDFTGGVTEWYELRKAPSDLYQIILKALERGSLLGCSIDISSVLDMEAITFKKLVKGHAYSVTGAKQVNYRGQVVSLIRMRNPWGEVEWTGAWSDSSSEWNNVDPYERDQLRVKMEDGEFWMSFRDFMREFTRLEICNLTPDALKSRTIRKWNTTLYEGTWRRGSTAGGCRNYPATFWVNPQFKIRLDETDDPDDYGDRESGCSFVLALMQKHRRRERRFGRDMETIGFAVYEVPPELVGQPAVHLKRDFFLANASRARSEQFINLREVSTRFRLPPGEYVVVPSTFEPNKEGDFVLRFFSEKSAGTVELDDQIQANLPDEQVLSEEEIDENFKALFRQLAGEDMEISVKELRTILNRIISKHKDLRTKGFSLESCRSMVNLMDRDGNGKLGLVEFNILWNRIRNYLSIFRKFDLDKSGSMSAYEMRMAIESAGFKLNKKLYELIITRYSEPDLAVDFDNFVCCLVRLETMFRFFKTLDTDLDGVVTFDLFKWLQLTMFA
UniProt P28065, sequence (whole entry, looked up): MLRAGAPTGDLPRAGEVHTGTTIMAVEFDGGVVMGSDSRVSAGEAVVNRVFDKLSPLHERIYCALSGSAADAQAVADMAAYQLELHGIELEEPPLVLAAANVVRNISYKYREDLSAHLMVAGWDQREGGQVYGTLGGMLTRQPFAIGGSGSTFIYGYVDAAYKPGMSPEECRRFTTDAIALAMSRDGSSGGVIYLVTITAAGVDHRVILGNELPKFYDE
UniProt P40306, sequence (whole entry, looked up): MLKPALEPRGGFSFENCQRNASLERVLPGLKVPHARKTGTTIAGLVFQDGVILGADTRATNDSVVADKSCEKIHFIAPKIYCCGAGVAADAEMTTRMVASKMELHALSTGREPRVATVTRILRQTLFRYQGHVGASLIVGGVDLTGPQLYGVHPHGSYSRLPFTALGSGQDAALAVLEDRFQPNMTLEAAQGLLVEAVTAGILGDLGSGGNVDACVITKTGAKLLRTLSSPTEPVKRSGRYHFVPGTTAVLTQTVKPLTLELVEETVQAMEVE
UniProt Q9UK17, sequence (whole entry, looked up): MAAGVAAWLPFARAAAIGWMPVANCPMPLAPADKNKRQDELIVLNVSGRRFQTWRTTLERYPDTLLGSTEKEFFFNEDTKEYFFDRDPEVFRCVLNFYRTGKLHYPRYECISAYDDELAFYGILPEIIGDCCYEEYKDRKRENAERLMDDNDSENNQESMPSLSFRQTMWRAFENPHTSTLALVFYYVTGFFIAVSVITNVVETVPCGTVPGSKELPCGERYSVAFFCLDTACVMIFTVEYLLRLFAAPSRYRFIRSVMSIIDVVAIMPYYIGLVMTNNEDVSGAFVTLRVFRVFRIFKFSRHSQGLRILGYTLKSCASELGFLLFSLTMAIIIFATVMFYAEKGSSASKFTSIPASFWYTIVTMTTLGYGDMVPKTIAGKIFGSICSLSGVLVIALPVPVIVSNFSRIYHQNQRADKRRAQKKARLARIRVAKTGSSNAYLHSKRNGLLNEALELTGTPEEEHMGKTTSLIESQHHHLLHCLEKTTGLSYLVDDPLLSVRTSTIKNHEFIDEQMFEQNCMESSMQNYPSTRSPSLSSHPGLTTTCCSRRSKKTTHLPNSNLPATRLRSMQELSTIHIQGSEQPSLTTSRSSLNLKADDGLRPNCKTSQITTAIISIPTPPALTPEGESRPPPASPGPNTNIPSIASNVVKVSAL

Structure (SMILES)	tested on	test	test system	conditions	scale	measurement	result
CC(C)C[C@H](NC(=O)[C@H]1O[C@@H]1C(=O)O)C(=O)NCCCCN=C(N)N	Cathepsin K (CTSK, Homo sapiens, UniProt P43235)	enzyme activity, inhibitor				IC50	0.000975 µM
CC[C@H](C)[C@H](NC(=O)[C@H](CC(C)C)NC(=O)[C@@H]1CCCN1C(=O)[C@H](CCC(=O)O)NC(=O)[C@@H]1CCCN1C(=O)[C@H](CCCNC(=N)N)NC(=O)[C@@H]1CCCN1C(=O)[C@H](CCCNC(=N)N)NC(=O)[C@H](CCC(N)=O)NC(=O)[C@H](CCCCN)NC(=O)[C@@H]1CCCN1C(=O)[C@H](C)NC(=O)[C@@H](N)Cc1ccc(O)cc1)C(=O)N[C@H](C(=O)N1CCC[C@H]1C(=O)N[C@H](C(=O)O)[C@@H](C)O)[C@@H](C)CC	Mapk1	enzyme activity, inhibitor, fluorescence		pH 7.4		IC50	10.2 µM
Cc1cc(-c2ccc3ccccc3c2)nnc1NCCN1CCN(C)CC1	Sodium-dependent dopamine transporter (Slc6a3, Rattus norvegicus, UniProt P23977)	transporter uptake, inhibitor				IC50	7.2 µM
O=C(O)CCn1c(=O)oc2cc(Cl)c(Cl)cc21	Sodium-dependent serotonin transporter (SLC6A4, Homo sapiens, UniProt P31645)	antagonist		median value		IC50	> 100 µM
CN1CCCCC1C(=O)NC(Cc1ccc(-c2ccccc2)cc1)B(O)O (centres unmarked)	Proteasome subunit beta type-9 / Proteasome subunit beta type-10 (Homo sapiens, UniProt P28065+P40306)	β1i activity, inhibitor		immunoproteasome, together with: Ac-PAL-AMC		IC50	> 10 µM
CCC(C(=O)Nc1ccccc1C)n1c(SCc2ccc(F)cc2)nc2ncccc21 (centres unmarked)	Calpain-1 catalytic subunit (CAPN1, Homo sapiens, UniProt P07384)	enzyme activity				IC50	> 100 µM
Cc1cc(Cl)ccc1OC(C)C(=O)N1CCc2ccccc21 (centres unmarked)	Dihydroorotate dehydrogenase (quinone), mitochondrial (PFF0160c, Plasmodium falciparum, UniProt Q08210, E182D)	enzyme activity, inhibitor, absorbance				IC50	0.12 µM
CC(C)C[C@H](NC(=O)[C@H](CCCCN)NC(=O)[C@H](CO)NC(=O)[C@H](CCCNC(=N)N)NC(=O)[C@H](C)NC(=O)[C@@H](N)Cc1ccc(O)cc1)C(=O)N[C@@H](CCCNC(=N)N)C(=O)N[C@@H](CCCCN)C(=O)N1CCC[C@H]1C(=O)N[C@@H](CCCCN)C(=O)N1CCC[C@H]1C(=O)N[C@H](C(=O)N1CCC[C@H]1C(=O)N[C@@H](CC(C)C)C(=O)N[C@@H](CCCNC(=N)N)C(=O)N[C@@H](CCCCN)C(=O)O)C(C)C	Mapk1	enzyme activity, inhibitor, fluorescence		pH 7.4		IC50	28 µM
O=C1NC2(CC2)COc2ncc(F)cc2[C@H]2COCCN2c2ccn3ncc1c3n2			Sprague-Dawley rat, female, uterus	oral, 20 mg/kg/day, 4 weeks dosing, end of recovery		organ-to-brain weight ratio	34.3 ± 8.38%
COc1cc(CN2CCN(C(=O)Cc3ccccc3)CC2)cc(OC)c1O	Alpha-synuclein (SNCA, Homo sapiens, UniProt P37840)	fibril growth, ELISA and FlAsH		20 h, together with: 6 µM monomer		IC50	2 ± 1 µM
COc1ccccc1-c1n[nH]c2nc(NC3CCN(C(=O)Cc4ccc(F)cc4F)CC3)ncc12		bead binding, competition bead pull-down, item: LINJ.27.1920	Leishmania donovani axenic amastigote extract	10 µM	reference: vehicle	relative abundance	1.09
CC[C@H](C)[C@H](NC(=O)[C@H](C)NC(=O)[C@H](CC(C)C)NC(=O)[C@H](CCCCN)NC(=O)[C@H](CCCNC(=N)N)NC(=O)[C@H](CCCCN)NC(=O)[C@H](CCCCN)NC(=O)[C@@H](NC(=O)[C@H](CCCCN)NC(=O)[C@H](CC(N)=O)NC(=O)[C@H](CCCCN)NC(=O)[C@@H](NC(=O)[C@H](C)NC(=O)[C@@H](N)Cc1ccc(O)cc1)[C@@H](C)O)C(C)C)C(=O)N[C@H](C(=O)N[C@@H](CCCNC(=N)N)C(=O)O)[C@@H](C)CC	Mapk1	enzyme activity, inhibitor, fluorescence		pH 7.4		IC50	59.9 µM
CC(C)(C)C(=O)OCOP(=O)(OCOC(=O)C(C)(C)C)C1CCCN(O)C1=O (centres unmarked)	SK-MEL-2					CC50	45.8 µM
C[C@@H]1COCCN1c1nc(NCc2cccnc2C(F)(F)F)c2cccnc2n1	A-type voltage-gated potassium channel KCND3 (KCND3, Homo sapiens, UniProt Q9UK17)	ion current, inhibitor				IC50	> 33 µM
